Published values gathered from unrelated publications.
Parts stem from different laboratories: compare values within a part only. Values joined by “and” are separate records of one study, mostly repeats; a detail may differ.
Chain of UniProt O75582 (whole entry, looked up): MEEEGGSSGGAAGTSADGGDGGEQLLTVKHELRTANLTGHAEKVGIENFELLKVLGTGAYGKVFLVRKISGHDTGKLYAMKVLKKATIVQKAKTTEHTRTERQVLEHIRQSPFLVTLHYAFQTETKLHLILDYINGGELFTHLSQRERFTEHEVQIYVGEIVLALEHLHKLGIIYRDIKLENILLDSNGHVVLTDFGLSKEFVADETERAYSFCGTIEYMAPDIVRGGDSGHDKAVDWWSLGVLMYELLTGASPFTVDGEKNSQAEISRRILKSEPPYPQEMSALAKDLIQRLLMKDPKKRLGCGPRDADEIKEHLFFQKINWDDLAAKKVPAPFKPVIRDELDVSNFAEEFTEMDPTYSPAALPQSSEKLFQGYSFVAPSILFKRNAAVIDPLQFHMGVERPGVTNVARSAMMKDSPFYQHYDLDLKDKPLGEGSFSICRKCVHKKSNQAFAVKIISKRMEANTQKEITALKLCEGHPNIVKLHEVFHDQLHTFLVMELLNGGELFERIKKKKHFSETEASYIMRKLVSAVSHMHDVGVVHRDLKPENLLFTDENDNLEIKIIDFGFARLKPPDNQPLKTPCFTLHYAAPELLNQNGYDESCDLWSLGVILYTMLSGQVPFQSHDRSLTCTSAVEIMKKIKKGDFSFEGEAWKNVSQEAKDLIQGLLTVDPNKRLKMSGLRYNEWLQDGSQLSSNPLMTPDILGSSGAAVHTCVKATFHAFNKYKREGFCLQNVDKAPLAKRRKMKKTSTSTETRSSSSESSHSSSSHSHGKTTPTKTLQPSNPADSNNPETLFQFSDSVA
Chain of UniProt O75716 (whole entry, looked up): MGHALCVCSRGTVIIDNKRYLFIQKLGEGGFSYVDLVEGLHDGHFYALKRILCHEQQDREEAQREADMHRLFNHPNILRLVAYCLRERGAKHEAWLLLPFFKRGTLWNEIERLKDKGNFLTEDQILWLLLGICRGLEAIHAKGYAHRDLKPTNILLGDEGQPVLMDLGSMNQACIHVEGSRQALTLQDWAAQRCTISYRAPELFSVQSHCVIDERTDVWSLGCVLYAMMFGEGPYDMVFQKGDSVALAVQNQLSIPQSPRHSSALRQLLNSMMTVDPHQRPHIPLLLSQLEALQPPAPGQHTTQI
Chain of UniProt P06493 (whole entry, looked up): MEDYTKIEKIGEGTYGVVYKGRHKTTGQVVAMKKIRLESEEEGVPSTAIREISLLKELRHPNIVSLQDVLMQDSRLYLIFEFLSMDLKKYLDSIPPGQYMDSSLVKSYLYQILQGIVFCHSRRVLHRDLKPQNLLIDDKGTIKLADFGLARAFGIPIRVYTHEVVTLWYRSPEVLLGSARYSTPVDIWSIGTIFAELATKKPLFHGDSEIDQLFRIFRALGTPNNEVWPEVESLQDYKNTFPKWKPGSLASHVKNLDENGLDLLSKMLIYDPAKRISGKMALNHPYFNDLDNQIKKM
Chain of UniProt P54760 (whole entry, looked up): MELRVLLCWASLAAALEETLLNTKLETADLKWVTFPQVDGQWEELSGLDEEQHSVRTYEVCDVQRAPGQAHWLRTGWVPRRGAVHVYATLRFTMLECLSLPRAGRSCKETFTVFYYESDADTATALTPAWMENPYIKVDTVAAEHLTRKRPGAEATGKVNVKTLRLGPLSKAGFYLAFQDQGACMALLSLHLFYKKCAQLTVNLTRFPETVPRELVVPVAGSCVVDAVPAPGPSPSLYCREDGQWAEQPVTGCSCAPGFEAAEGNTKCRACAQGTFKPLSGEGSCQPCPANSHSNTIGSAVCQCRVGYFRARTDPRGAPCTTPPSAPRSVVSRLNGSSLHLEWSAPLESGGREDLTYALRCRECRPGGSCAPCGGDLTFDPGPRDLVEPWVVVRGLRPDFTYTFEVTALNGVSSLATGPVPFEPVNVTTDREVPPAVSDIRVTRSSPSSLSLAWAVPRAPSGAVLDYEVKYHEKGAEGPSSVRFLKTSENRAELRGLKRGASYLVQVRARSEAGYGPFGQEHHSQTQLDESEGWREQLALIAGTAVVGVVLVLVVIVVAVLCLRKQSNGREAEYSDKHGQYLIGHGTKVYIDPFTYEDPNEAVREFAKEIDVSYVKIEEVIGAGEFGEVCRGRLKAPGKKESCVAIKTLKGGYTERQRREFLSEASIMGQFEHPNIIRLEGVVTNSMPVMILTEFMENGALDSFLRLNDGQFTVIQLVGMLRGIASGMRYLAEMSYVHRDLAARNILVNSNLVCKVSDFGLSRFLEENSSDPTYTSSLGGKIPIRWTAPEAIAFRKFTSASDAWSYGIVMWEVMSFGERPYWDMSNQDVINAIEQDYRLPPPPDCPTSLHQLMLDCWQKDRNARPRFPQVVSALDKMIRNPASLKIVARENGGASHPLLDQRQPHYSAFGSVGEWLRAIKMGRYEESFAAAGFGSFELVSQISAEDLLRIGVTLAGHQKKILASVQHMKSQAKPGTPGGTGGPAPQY
Chain of UniProt Q9H2X6 (whole entry, looked up): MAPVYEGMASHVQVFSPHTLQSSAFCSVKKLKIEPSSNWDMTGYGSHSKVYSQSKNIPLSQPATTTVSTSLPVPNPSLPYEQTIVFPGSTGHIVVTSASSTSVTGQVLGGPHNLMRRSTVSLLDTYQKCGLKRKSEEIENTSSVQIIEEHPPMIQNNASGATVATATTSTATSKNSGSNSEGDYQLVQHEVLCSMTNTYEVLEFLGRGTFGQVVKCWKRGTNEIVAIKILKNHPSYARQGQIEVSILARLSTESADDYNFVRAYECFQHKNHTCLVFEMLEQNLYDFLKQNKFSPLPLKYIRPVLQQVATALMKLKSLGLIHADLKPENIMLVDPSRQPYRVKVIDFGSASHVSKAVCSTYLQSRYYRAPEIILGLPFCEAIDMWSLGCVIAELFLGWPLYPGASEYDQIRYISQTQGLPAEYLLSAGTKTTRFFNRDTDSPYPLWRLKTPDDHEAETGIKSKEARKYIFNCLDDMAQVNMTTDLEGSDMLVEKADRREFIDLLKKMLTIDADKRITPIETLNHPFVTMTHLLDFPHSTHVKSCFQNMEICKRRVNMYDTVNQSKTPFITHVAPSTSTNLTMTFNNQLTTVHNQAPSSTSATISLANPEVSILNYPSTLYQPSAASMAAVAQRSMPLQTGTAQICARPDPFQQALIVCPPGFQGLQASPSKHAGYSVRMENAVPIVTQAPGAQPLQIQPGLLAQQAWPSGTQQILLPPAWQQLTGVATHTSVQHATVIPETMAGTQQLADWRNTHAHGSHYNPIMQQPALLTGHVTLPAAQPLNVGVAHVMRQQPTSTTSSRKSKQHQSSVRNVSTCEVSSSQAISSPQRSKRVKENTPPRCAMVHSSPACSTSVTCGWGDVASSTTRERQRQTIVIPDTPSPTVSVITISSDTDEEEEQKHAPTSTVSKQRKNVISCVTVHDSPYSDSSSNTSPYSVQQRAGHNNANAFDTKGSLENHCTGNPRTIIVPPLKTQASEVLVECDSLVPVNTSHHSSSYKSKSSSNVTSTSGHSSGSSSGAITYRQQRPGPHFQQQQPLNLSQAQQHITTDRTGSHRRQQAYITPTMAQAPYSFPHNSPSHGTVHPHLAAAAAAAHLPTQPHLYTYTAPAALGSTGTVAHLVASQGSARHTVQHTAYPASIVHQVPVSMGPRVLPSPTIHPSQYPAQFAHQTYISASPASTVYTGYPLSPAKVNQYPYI
Chain of UniProt Q96PF2 (whole entry, looked up): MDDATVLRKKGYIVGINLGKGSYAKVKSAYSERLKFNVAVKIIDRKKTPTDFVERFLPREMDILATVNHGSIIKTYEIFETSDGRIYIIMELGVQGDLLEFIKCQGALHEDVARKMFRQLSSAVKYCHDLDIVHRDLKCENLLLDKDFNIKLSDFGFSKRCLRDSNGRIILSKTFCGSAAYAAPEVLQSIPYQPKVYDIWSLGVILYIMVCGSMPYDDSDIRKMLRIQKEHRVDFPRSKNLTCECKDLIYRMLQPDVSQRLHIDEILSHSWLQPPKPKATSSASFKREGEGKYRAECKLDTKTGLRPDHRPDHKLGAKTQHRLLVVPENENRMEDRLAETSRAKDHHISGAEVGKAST
Chain of UniProt O43781 (whole entry, looked up): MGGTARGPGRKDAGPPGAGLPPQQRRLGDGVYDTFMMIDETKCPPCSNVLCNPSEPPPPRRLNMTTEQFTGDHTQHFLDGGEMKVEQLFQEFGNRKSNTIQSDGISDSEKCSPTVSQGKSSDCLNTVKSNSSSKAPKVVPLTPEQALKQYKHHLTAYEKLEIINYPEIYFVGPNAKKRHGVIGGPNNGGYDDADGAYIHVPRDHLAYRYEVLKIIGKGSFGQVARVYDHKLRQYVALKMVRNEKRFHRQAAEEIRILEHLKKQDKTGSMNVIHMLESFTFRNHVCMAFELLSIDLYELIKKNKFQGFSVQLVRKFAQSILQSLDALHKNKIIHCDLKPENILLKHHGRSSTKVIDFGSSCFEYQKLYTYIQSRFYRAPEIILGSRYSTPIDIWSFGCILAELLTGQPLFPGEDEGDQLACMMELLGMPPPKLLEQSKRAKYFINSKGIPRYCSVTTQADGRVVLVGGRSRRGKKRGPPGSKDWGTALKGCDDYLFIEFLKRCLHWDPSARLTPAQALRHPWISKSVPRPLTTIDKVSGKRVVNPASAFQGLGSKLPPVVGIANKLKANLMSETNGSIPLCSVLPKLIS

Block 1 — tested at: 1 µM; measurement: remaining binding
Structure (SMILES): CCCCN(CCCC)C(=O)CN1C[C@H](c2cc(OC)c3c(c2)OCO3)[C@@H](C(=O)O)[C@@H]1CC(C)(C)CCC
target = EGFR (Homo sapiens, UniProt P00533, L858R); test = cell-free assay, competition with immobilised ligand; value = 99.7%
target = PDGFRB (Homo sapiens, UniProt P09619); test = cell-free assay, competition with immobilised ligand; value = 100%
target = MATK (Homo sapiens, UniProt P42679); test = cell-free assay, competition with immobilised ligand; value = 62.8%
target = COQ8A (Homo sapiens, UniProt Q8NI60); test = cell-free assay, competition with immobilised ligand; value = 100%
target = EPHA5 (Homo sapiens, UniProt P54756); test = cell-free assay, competition with immobilised ligand; value = 100%
target = Aurora kinase A (AURKA, Homo sapiens, UniProt O14965); test = cell-free assay, competition with immobilised ligand; value = 90.3%
target = SIK1 (Homo sapiens, UniProt P57059); test = competition binding; value = 100%
target = CDK19 (Homo sapiens, UniProt Q9BWU1); test = competition binding; value = 100%
target = DMPK (Homo sapiens, UniProt Q09013); test = cell-free assay, competition with immobilised ligand; value = 100%
target = SYK (Homo sapiens, UniProt P43405); test = cell-free assay, competition with immobilised ligand; value = 100%
target = MAPK8 (Homo sapiens, UniProt P45983); test = cell-free assay, competition with immobilised ligand; value = 100%
target = Ribosomal protein S6 kinase alpha-5, C-terminal kinase domain (RPS6KA5, Homo sapiens, UniProt O75582); test = cell-free assay, competition with immobilised ligand; value = 100%
target = CDK2 (Homo sapiens, UniProt P24941); test = cell-free assay, competition with immobilised ligand; value = 100%
target = FLT3 (Homo sapiens, UniProt P36888, D835Y); test = cell-free assay, competition with immobilised ligand; value = 100%
target = IKBKE (Homo sapiens, UniProt Q14164); test = cell-free assay, competition with immobilised ligand; value = 80.9%

Block 2 — measurement: cell count
Compound: CC(C)C[C@@H]1NC(=O)[C@@H](N(C)C(=O)[C@H](CC2CCC2)NC(=O)[C@@H]2C[C@@H](F)CN2C(=O)C2(C(F)(F)F)CC(F)(F)C2)CCCCNC(=O)C2(CC2)NC(=O)[C@H](Cc2cc(Cl)ccc2Cl)N(C)C1=O
cell line = NCI-H1299; test = Vi-Cell counting; conditions = 20 nM, 6 days; scale = reference: DMSO; value = 0.903 and 1.03
cell line = NCI-H446 sgCtrl; test = dose-response; conditions = 250 nM, 6 d; scale = reference: DMSO-treated; value = 0.0845 and 0.0431 and 0.0717
cell line = MDA-MB-231, doxycycline-inducible E2F1; conditions = 60 nM, 6 days, no doxycycline; scale = reference: DMSO; value = 0.743 and 0.84 and 0.8
cell line = MDA-MB-231, doxycycline-inducible E2F1; conditions = 20 nM, 6 days, no doxycycline; scale = reference: DMSO; value = 0.88 and 0.895 and 0.924
cell line = HCC4006; test = Vi-Cell counting; conditions = 2 µM, 6 days; scale = reference: DMSO; value = 0.0657 and 0.0894 and 0.125

Block 3 — read-out: enzyme activity; mode: inhibitor; tested at: 10 µM; measurement: inhibition
Target: Calcium/calmodulin-dependent protein kinase type II subunit alpha (CAMK2A, Homo sapiens, UniProt Q9UQM7)
Chain of UniProt Q9UQM7 (whole entry, looked up): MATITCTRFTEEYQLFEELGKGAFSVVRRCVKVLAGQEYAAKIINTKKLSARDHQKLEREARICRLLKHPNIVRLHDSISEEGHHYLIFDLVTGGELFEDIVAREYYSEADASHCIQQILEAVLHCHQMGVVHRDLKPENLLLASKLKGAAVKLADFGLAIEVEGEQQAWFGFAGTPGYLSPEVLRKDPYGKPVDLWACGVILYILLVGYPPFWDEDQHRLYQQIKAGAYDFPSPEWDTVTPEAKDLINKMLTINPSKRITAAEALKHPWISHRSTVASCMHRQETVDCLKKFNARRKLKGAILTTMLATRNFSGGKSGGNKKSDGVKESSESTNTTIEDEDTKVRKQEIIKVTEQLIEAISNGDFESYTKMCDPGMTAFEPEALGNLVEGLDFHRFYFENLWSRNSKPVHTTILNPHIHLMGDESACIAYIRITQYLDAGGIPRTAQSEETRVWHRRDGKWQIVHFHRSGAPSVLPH
Compound = Cc1cc2c(cc1S(N)(=O)=O)S(=O)(=O)CCC2; value = -10%
Compound = C/C=C(/C)C(=O)O[C@@H]1[C@H](OC(=O)CC(C)C)c2c(ccc3ccc(=O)oc23)OC1(C)C; value = 24%
Compound = CCCCC/C=C\C/C=C\C/C=C\CCCCC(=O)O; value = -2%
Compound = COc1ccc([C@@H]2OC[C@H]3[C@@H]2CO[C@@H]3c2ccc(O[C@@H]3O[C@H](CO)[C@@H](O)[C@H](O)[C@H]3O)c(OC)c2)cc1OC; value = 16%
Compound = CC12CC3OC4O[C@H](CO)[C@@H](O)[C@H](O)[C@H]4OC34CC1C4(COC(=O)c1ccccc1)C(=O)O2 (some centres unmarked); value = -10%
Compound = C=C1CC[C@H]2C(=C)CC[C@H]3C(=C)C(=O)O[C@@H]3[C@@H]12; value = 1%
Compound = CC(=O)c1c(O)cccc1O; value = -12%
Compound = O=C(O)c1cc(=O)c2cccc(O)c2[nH]1; value = -8%

Block 4 — Structure (SMILES): COc1ccc(Cl)cc1NC(=O)Nc1cc(C)nc2ccccc12; read-out: enzyme activity; mode: inhibitor; tested at: 0.5 µM; reference: control; measurement: remaining activity
target = AXL (Homo sapiens, UniProt P30530); value = 94%
target = HIPK2 (Homo sapiens, UniProt Q9H2X6); value = 101%
target = CAMK2B (Homo sapiens, UniProt Q13554); value = 103%
target = Cyclin-dependent kinase 6, with cyclin D3 (CDK6, Homo sapiens, UniProt Q00534); value = 99%
target = MAP4K4 (Homo sapiens, UniProt O95819); value = 84.7%
target = EPHB1 (Homo sapiens, UniProt P54762); value = 102%
target = TSSK2 (Homo sapiens, UniProt Q96PF2); value = 94%
target = Cyclin-dependent kinase 1, with cyclin B (CDK1, Homo sapiens, UniProt P06493); value = 81.1%
target = PHKG1 (Homo sapiens, UniProt Q16816); value = 102%
target = EPHA4 (Homo sapiens, UniProt P54764); value = 104%
target = RPS6KA5 (Homo sapiens, UniProt O75582); value = 88.4%
target = MAPKAPK3 (Homo sapiens, UniProt Q16644); value = 101%
target = PDPK1 (Homo sapiens, UniProt O15530); value = 83.9%
target = HIPK4 (Homo sapiens, UniProt Q8NE63); value = 109%
target = WNK3 (Homo sapiens, UniProt Q9BYP7); value = 99.9%
target = STK16 (Homo sapiens, UniProt O75716); value = 105%
target = EPHB4 (Homo sapiens, UniProt P54760); value = 93.7%
target = SRMS (Homo sapiens, UniProt Q9H3Y6); value = 97.6%
target = BLK (Homo sapiens, UniProt P51451); value = 99.8%
target = Cyclin-dependent kinase 4, with cyclin D3 (CDK4, Homo sapiens, UniProt P11802); value = 98.5%
target = DYRK3 (Homo sapiens, UniProt O43781); value = 106%
target = STK17A (Homo sapiens, UniProt Q9UEE5); value = 98.2%

Excerpt of the above (block 3):
Compound = Cc1cc2c(cc1S(N)(=O)=O)S(=O)(=O)CCC2; value = -10%
Compound = C/C=C(/C)C(=O)O[C@@H]1[C@H](OC(=O)CC(C)C)c2c(ccc3ccc(=O)oc23)OC1(C)C; value = 24%
Compound = CCCCC/C=C\C/C=C\C/C=C\CCCCC(=O)O; value = -2%
Compound = COc1ccc([C@@H]2OC[C@H]3[C@@H]2CO[C@@H]3c2ccc(O[C@@H]3O[C@H](CO)[C@@H](O)[C@H](O)[C@H]3O)c(OC)c2)cc1OC; value = 16%
Compound = CC12CC3OC4O[C@H](CO)[C@@H](O)[C@H](O)[C@H]4OC34CC1C4(COC(=O)c1ccccc1)C(=O)O2 (some centres unmarked); value = -10%
Compound = C=C1CC[C@H]2C(=C)CC[C@H]3C(=C)C(=O)O[C@@H]3[C@@H]12; value = 1%
Compound = CC(=O)c1c(O)cccc1O; value = -12%
Compound = O=C(O)c1cc(=O)c2cccc(O)c2[nH]1; value = -8%
